# Measured values collected from several papers.
# Parts stem from different laboratories: compare values within a part only.

# Series 1 — method: competition protein-binding microarray; molecule type: double-stranded DNA, one strand shown; sample: in vitro; concentration: 2 µM; added: Cbf1 competitor, 0.05 µM; reading: higher = stronger binding
# Target: Phosphate system positive regulatory protein PHO4, full length, GST-tagged (PHO4, Saccharomyces cerevisiae, UniProt P07270, residues 1-312)
# Setting: whole 60-bp probe, lowest competitor level
# Target sequence (chain): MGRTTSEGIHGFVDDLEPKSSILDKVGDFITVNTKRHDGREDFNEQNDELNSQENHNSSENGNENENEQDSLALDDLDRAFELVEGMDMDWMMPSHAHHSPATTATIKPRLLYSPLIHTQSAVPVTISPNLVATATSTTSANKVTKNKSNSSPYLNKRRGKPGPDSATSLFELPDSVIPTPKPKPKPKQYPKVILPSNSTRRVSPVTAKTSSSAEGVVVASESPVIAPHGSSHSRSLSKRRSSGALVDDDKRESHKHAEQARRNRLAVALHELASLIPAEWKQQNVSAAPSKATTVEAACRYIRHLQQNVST
Oligonucleotide,fluorescence intensity [a.u.]
GGGTAGCCCTCTCAACACGTGGAGGGTAACCTTTTCGTCTTGATTCGCTTGACGCTGCTG,15200
CGTCCTAGTGATTGGACCGTGGGTGCCATGAGGAAGGTCTTGATTCGCTTGACGCTGCTG,9930
CTTCTGTAAATTTGTCACTCGACTTGACGCGCCCCGGTCTTGATTCGCTTGACGCTGCTG,3230

# Series 2 — method: aptamer microarray, sandwich; molecule type: DNA with 2'F-ANA; sample: in vitro; concentration: 200 nM; added: Cy3 exosite-II aptamer, 400 nM; reading: higher = stronger binding
# Target: Prothrombin, mature alpha-thrombin (F2, Homo sapiens, UniProt P00734)
# Setting: whole 15-mer aptamer, many near background
Oligonucleotide,mean fluorescence intensity [a.u.]
GGTTGGTGTGGTTGG (2'F-ANA at 3 4 6 9 12 13 14 15),238
GGTTGGTGTGGTTGG (2'F-ANA at 1 4 6 7 10 11 14 15),46
GGTTGGTGTGGTTGG (2'F-ANA at 3 5 10 12 13 14 15),49.9

# Series 3 — method: protein binding microarray; molecule type: double-stranded DNA, one strand shown; sample: in vitro; concentration: not given; baseline: not given; reading: higher = stronger binding
# Target: Histone acetyltransferase KAT6A, winged helix 2, GST fusion (KAT6A, Homo sapiens, UniProt Q92794, residues 85-181)
# Setting: 8-mer, flanks averaged, mean of 2 arrays, mostly near background
# Residues (chain): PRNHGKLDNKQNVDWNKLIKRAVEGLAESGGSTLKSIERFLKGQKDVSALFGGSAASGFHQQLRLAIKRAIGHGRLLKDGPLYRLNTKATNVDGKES
Oligonucleotide,E-score
GGGTCAAC,0.0896
CTCGTAAA,-0.0449
CGTTCGCA,0.0303

# Single results of other studies
Molecule,target,assay,test system,setting,scale,quantity,result
"PhoQ, residues 284 288 289 292 302 303 TNSAEL","PhoP, residues 12 14 15 18 19 LWHVM (Escherichia coli, UniProt P23836)","Sort-seq, item: YFP reporter",E. coli,"PhoQ-PhoP variant library, added: 10 µM Mg2+","baseline: high Mg2+ state, higher = stronger signaling",fold induction,21.7

# For quick reference, copied from above (single results of other studies):
Molecule,target,assay,test system,setting,scale,quantity,result
"PhoQ, residues 284 288 289 292 302 303 TNSAEL","PhoP, residues 12 14 15 18 19 LWHVM (Escherichia coli, UniProt P23836)","Sort-seq, item: YFP reporter",E. coli,"PhoQ-PhoP variant library, added: 10 µM Mg2+","baseline: high Mg2+ state, higher = stronger signaling",fold induction,21.7
